Experimental data from different studies.
Compare with care: the assays were run in different laboratories. ± marks the error that the study gave.

`CCCCCCSC[C@H]1CN(Cc2c[nH]c3c(N)ncnc23)C[C@@H]1O` gave an IC50 of 1.3 ± 0.7 µM (Campylobacter jejuni; colony formation; 144 h, Mueller-Hinton agar).
The IC50 of `COc1c(C)c(O)c(C)c(O)c1C(=O)C1C(CC=C(C)C=O)C(C)=CCC1c1ccccc1` (stereo not drawn) is reported as 50 µM (human respiratory syncytial virus; viral replication, CPE reduction; HEp-2, A2).
The IC50 of `O=[N+]([O-])c1ccc(/C=N/N=C/c2ccc(O)cc2)o1` is reported as 4.81 ± 1.1 µM (Trypanosoma brucei rhodesiense; parasite growth, CellTiter-Glo; IL1501 bloodstream form; 72 h).
With `Oc1ccc(/C=C/c2ccc(O)cc2)cc1` the IC50 was 344 µM (Streptococcus mutans; biofilm formation, crystal violet).
The IC50 of `CC(C)C1CCC(C)C23CC4CC5=C(OC4(C)C2C13)C(C)(C)C(=O)C(=C(O)C=Cc1ccccc1)C5=O` (stereo not drawn) is reported as 31.2 ± 8.75 µM (human respiratory syncytial virus; viral replication, CPE reduction; HEp-2, A2).
The IC50 of `COc1ccc(/C=N/N=C/c2ccc([N+](=O)[O-])o2)cc1` is reported as 0.22 ± 0.08 µM (Trypanosoma congolense; parasite growth, CellTiter-Glo; IL3000 bloodstream form; 72 h, 33 °C).
`COC1C=COC2(C)Oc3c(C)c(O)c4c(c3C2=O)C2=NC3(CCN(CC(C)C)CC3)NC2=C(NC(=O)C(C)=CC=CC(C)C(O)C(C)C(O)C(C)C(OC(=O)c2cccnc2)C1C)C4=O` (stereo not drawn) has an IC50 of 0.15 µM (Mycobacteroides abscessus; ATCC 19977; 1:1 CAMHB:human serum).
For `O=[N+]([O-])c1ccc(/C=N/N=C/c2ccc(Cl)cc2)s1`, the IC50 was 0.95 ± 0.27 µM (Trypanosoma brucei rhodesiense; parasite growth, CellTiter-Glo; IL1501 bloodstream form; 72 h).
`CCCCCCCCCC1CC2CCCC3CC(CCCCCCCCC)NC(=N1)N23` (stereo not drawn) has an IC50 of 9.81 µM (Mycobacterium intracellulare; microbial growth; ATCC23068).
`O=[N+]([O-])c1ccc(/C=N/N=C/c2ccc(OCc3ccccc3)cc2)o1` gave an IC50 of 0.03 ± 0.01 µM (Trypanosoma congolense; parasite growth, CellTiter-Glo; IL3000 bloodstream form; 72 h, 33 °C).
With `CC1(C)C(=O)C(=C(O)C=Cc2ccccc2)C(=O)C2=C1OC1(C)C(C2)CC2CC1C2(C)C` (stereo not drawn) the IC50 was greater than 50 µM (human respiratory syncytial virus; viral replication, CPE reduction; HEp-2, A2).
`COc1ccccc1NC(=O)OC1C(C)C(OC)C=COC2(C)Oc3c(C)c(O)c4c(c3C2=O)C2=NC3(CCN(CC(C)C)CC3)NC2=C(NC(=O)C(C)=CC=CC(C)C(O)C(C)C(O)C1C)C4=O` (stereo not drawn) gave an IC50 of 0.01 µM (Mycobacteroides abscessus; intracellular bacterial growth; THP-1 derived macrophages, ATCC 19977).
For `O=[N+]([O-])c1ccc(/C=N/N=C/c2ccccc2)s1`, the IC50 was 0.1 ± 0.04 µM (Trypanosoma congolense; parasite growth, CellTiter-Glo; IL3000 bloodstream form; 72 h, 33 °C).
The IC50 of `COc1cc(O)cc(/C=C/c2ccccc2)c1` is reported as 477 µM (Streptococcus mutans; biofilm formation, crystal violet).
For `COC1C=COC2(C)Oc3c(C)c(O)c4c(c3C2=O)C2=NC3(CCN(CC(C)C)CC3)NC2=C(NC(=O)C(C)=CC=CC(C)C(O)C(C)C(O)C(C)C(OC(=O)c2cncnc2)C1C)C4=O` (stereo not drawn), the IC50 was 0.048 µM (Mycobacteroides abscessus; ATCC 19977; 1:1 CAMHB:human serum).
`C=C1CCC2Cc3c(c(C)c(O)c(C(=O)C=Cc4ccccc4)c3OC)OC2(C)CCC2C1CC2(C)C` (stereo not drawn) gave an IC50 of 50 µM (human respiratory syncytial virus; viral replication, CPE reduction; HEp-2, A2).
For `CCCCCCC[C@@H](CO)NCc1c[nH]c2c(N)ncnc12`, the IC50 was 5.6 ± 0.8 µM (Campylobacter jejuni; colony formation; 144 h, Mueller-Hinton agar).
`C=C1CC[C@@H]2CC3=C(O[C@@]2(C)CC[C@@H]2[C@@H]1CC2(C)C)C(C)(C)C(=O)/C(=C(O)\C=C\c1ccccc1)C3=O` has an IC50 of 24.7 ± 1.74 µM (human respiratory syncytial virus; viral replication, CPE reduction; HEp-2, A2).
`CCN(CC)CC#CCNc1ccnc2cc(Cl)ccc12` gave an IC50 of 0.079 µM (Plasmodium falciparum; parasite growth, LDH).
With `C=C1CC[C@@H]2Cc3c(O)c(C(=O)/C=C/c4ccccc4)c(OC)c(C)c3O[C@@]2(C)CC[C@@H]2[C@@H]1CC2(C)C` the IC50 was 50 µM (human respiratory syncytial virus; viral replication, CPE reduction; HEp-2, A2).
For `CCCCCCCCCC1CC2CCC3CC(CCCCCCCCC)NC(=N1)N23` (stereo not drawn), the IC50 was 7.41 µM (Mycobacterium intracellulare; microbial growth; ATCC23068).
The IC50 of `O=[N+]([O-])c1ccc(/C=N/N=C/c2ccc(Cl)cc2)o1` is reported as 1.26 ± 0.15 µM (Trypanosoma brucei rhodesiense; parasite growth, CellTiter-Glo; IL1501 bloodstream form; 72 h).
With `Nc1ncnc2c(CN3C[C@H](CSc4cnccn4)[C@@H](O)C3)c[nH]c12` the IC50 was 3 ± 0.7 µM (Campylobacter jejuni; colony formation; 144 h, Mueller-Hinton agar).
`CC1=C(OC2CC3CCC2(C)C3(C)C)C(C)(C)C(=O)C(=C(O)C=Cc2ccccc2)C1=O` (stereo not drawn) gave an IC50 of 3.13 ± 0.69 µM (human respiratory syncytial virus; viral replication, CPE reduction; HEp-2, A2).
With `O=C1CSC(c2cccc(Br)c2)N1c1cc(Cl)ccc1O` (stereo not drawn) the IC50 was 31 µM (Listeria; Listeria comet tail motility, inhibitor; SK-OV-3).
For `CC1(C)C(=O)C(=C(O)C=Cc2ccccc2)C(=O)C2=C1OC1(CC2)CCC2CC1C2(C)C` (stereo not drawn), the IC50 was greater than 50 µM (human respiratory syncytial virus; viral replication, CPE reduction; HEp-2, A2).
`COc1ccc(N2C(=O)CSC2c2cccc(Br)c2)c(OC)c1` (stereo not drawn) gave an IC50 of 7 µM (Listeria; Listeria comet tail motility, inhibitor; SK-OV-3).

Some of these lines once more:
With `Oc1ccc(/C=C/c2ccc(O)cc2)cc1` the IC50 was 344 µM (Streptococcus mutans; biofilm formation, crystal violet).
The IC50 of `CC(C)C1CCC(C)C23CC4CC5=C(OC4(C)C2C13)C(C)(C)C(=O)C(=C(O)C=Cc1ccccc1)C5=O` (stereo not drawn) is reported as 31.2 ± 8.75 µM (human respiratory syncytial virus; viral replication, CPE reduction; HEp-2, A2).
The IC50 of `COc1ccc(/C=N/N=C/c2ccc([N+](=O)[O-])o2)cc1` is reported as 0.22 ± 0.08 µM (Trypanosoma congolense; parasite growth, CellTiter-Glo; IL3000 bloodstream form; 72 h, 33 °C).
`COC1C=COC2(C)Oc3c(C)c(O)c4c(c3C2=O)C2=NC3(CCN(CC(C)C)CC3)NC2=C(NC(=O)C(C)=CC=CC(C)C(O)C(C)C(O)C(C)C(OC(=O)c2cccnc2)C1C)C4=O` (stereo not drawn) has an IC50 of 0.15 µM (Mycobacteroides abscessus; ATCC 19977; 1:1 CAMHB:human serum).
